Results of several laboratories.
Numbered parts are unrelated; each lists some results of a single study. Changes are numbered by the printed parent chain.

Sample 1
Target: Sal-like protein 4, full length isoform A (SALL4, Homo sapiens, UniProt Q9UJQ4, residues 1-1053)
UniProt Q9UJQ4, sequence (whole entry, looked up): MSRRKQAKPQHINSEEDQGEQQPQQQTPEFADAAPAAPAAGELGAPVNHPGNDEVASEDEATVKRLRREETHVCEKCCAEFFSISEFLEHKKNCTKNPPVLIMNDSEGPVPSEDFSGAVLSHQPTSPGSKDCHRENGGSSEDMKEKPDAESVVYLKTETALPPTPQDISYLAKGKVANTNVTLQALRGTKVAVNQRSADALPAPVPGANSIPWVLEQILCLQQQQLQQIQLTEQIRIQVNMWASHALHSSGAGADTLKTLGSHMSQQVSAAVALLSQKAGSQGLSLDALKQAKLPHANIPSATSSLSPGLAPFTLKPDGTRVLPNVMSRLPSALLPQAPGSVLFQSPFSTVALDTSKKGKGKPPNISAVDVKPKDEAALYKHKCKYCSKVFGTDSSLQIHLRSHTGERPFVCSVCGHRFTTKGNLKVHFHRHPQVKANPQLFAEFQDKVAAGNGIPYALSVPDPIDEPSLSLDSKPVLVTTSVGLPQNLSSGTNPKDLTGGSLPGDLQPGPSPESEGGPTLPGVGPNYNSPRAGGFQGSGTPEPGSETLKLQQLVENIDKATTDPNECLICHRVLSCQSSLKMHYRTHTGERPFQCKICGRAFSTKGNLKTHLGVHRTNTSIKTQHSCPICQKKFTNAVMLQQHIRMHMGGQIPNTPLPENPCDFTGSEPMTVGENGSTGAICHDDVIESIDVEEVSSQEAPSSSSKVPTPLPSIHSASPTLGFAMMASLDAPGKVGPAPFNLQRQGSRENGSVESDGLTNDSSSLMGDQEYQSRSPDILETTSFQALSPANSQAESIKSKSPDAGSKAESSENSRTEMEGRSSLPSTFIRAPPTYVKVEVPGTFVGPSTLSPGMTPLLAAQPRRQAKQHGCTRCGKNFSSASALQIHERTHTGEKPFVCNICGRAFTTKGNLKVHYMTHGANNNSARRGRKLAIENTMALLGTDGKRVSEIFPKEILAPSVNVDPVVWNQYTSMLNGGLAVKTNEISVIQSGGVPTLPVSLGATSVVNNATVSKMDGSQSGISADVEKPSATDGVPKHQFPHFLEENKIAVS
Technique: universal PBM
Molecule type: double-stranded DNA, one strand shown
Matrix: in vitro
Tested at: 600 nM
Setting: 8-mer, flanks averaged, mean of replicates
Reading: higher = stronger binding
Oligonucleotide	E-score
ACCTCTCA	-0.182
AGGATCGA	-0.0154
AGTCCATA	0.104
AATGAGGT	0.0915
CCCAAGTC	-0.212
ACAATAGT	0.161
CCGTCGGC	-0.369
AGCGTCGA	-0.0259
AATATGCT	0.306
ATTCCGCC	-0.0897
ACTAGTTA	0.225
ACTAAGTA	0.115
AGCAGTAG	-0.14
AAGTATCC	-0.00365
GTAGACCA	-0.127
CGTCCTAC	-0.186
GTCAGCGA	-0.282
ACATCTGA	0.0578
CTTAGCTC	-0.236
ACATAGAA	0.179
GTATCGAA	0.123
AATAGGCC	0.0163
CTCCCTCA	-0.192
CATCTTCA	0.0418
ATAACGAC	0.146

Sample 2
Target: CCNB3, cyclin fold, Cln2 fusion (human)
Technique: yeast growth competition, sequencing
Matrix: yeast
Setting: weak parent motif
Relative to: not given
Reading: higher = stronger binding
Parent: GMNC docking peptide (human); KNAKRNLSSEFAN; partner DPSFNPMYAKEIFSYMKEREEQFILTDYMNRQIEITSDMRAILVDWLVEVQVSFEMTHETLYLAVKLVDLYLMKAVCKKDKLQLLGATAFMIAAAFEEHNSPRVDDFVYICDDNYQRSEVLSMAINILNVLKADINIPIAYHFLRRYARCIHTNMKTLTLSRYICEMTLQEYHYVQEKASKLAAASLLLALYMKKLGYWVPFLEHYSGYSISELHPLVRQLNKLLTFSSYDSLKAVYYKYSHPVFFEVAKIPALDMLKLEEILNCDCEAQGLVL
Substitution	normalised enrichment score
KNAKRNLSREFAN [S9R]	0.761
KNAKRNLSSEFFN [A12F]	-0.0934
KNAKRNASSEFAN [L7A]	0.5
KNAKRNLSTEFAN [S9T]	0.511
KNAKRDLSSEFAN [N6D]	-0.0426
KNAKRNLFSEFAN [S8F]	0.541
KNAKRNLSSEFIN [A12I]	0.227
KWAKRNLSSEFAN [N2W]	0.761
KNHKRNLSSEFAN [A3H]	0.0999
KNAKRNLVSEFAN [S8V]	0.323
KNAKYNLSSEFAN [R5Y]	0.138
KNAKRNLSSENAN [F11N]	-0.271
KNAKRNLSSEPAN [F11P]	-0.176
KNAKRNLSQEFAN [S9Q]	0.0884
KNRKRNLSSEFAN [A3R]	0.0475
KNAKRNLSSKFAN [E10K]	-0.3
KNAYRNLSSEFAN [K4Y]	0.0093

Sample 3
Target: RNA binding protein fox-1 homolog 2, RRM domain, GST-SBP tag (RBFOX2, Homo sapiens, UniProt O43251-10, residues 100-194)
Technique: RNA Bind-n-Seq
Molecule type: RNA
Matrix: in vitro
Tested at: 365 nM
Setting: natural RNA segment, single round, ends assumed
Relative to: no-protein control
Reading: higher = stronger binding
All sequences stand within: GGGAGUUCUACAGUCCGACGAUC … UGGAAUUCUCGGGUGCCAA
Target sequence (chain): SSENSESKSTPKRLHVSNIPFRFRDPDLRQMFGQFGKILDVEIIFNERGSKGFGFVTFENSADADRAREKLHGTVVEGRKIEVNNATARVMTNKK
Oligonucleotide	RBNS enrichment (R)
CCCACACUCCCUUCCAGGCCGUGGCCUUCGCUUCCUCAUUAGAAUCAGGAGAGUGAGGCACAGUGUCCAUCAUGCCAUUUAAUCUUGUGCCUGCCCUUUCCAGCCUCUUC	0.41
AUGAAAUGGUCAUCACAUCUGACCUUGGUCAGUGGGGAGGGGAACUGGUAUCCUGCCAAGCCUGGUUGUAAUUUGUAACCAUUUUCUAUUUGUGCAAACUCUGUAAAUAU	0.538
GCAUCACAUAUACUAAGCAUGUGCUCUACCAUCAUGCUAUGCUUCCAGCUCAGGGGGGCACUUUUAAGGAUCUAGAAAACAGAAAUUAAGGAUCUCAUAGUUAUUUUAUU	1.44
GCCUUUUUAACUUUAAACAUGUUUUAGAAUUCACCUAAAGAUCAAAAUAUCAUGGAUUGAACCUCAUCAAUUGAUAGCAGUGAGUGACUGAAGCUUCCAAAUCAAGAAAA	0.455
GCUGGGCACAGUGGCUCACGCCUGUAAUCCCAGCACUUUGGGAGGCCGAGGCGGGCGGAUCAUGAGGUUAGGAGAGCGAGACCAUCCUGGCUAACACGGUGAAACCCCGU	0.343
ACUCAGGUGGUGAAAAGAGACAGAAGCGUAUUUCUCUCUGAACAUGCUUGGCUCCCCCCCCCCCCCAGUGUCUGCCUUUCUUUACCUGUGAGGCCUGGUUCUGGAUCUGG	0.268
AUAAAGCUAACCUUGAUAAUUUUACUUUUAAUUAAUUAUCUAAAUGAAAAAUGCUAUUAGCUGAACCACAUCCACAACAGCACAUAGAGCUCUAGAAGAGUUGAAACAUA	0.416
UCCCAAAGUGCUGCCAUUACAGGCGUGAGCCACUAGGCCUGACCUCCCCUUCCCCUUUCCUGCCCCAAGGCAGAUCCACAUCACCGAAGCUCCCUAGAGGGGCAAAAGAU	0.318

Sample 4
Target: Histone acetyltransferase KAT6A, winged helix 1, GST fusion (KAT6A, Homo sapiens, UniProt Q92794, residues 1-85)
Technique: protein binding microarray
Molecule type: double-stranded DNA, one strand shown
Matrix: in vitro
Tested at: not given
Setting: 8-mer, flanks averaged, mean of 2 arrays, mostly near background
Relative to: not given
Reading: higher = stronger binding
Residues (chain): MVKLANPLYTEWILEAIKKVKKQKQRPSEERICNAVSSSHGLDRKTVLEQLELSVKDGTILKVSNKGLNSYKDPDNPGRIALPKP
Oligonucleotide	E-score
AAGACGAG	-0.122
CCTCTGGA	-0.179
AAGGGAAG	-0.0481
ATCCCAGA	-0.132
ACACGTTC	-0.0137
ATGGTTTC	-9e-05
AAGTCATG	-0.164
GCCGTCGA	0.312
CGGCTAGA	0.171
AACCCAGC	-0.0749
AAGAGTAA	-0.0807
AGGAGATC	-0.156
CTGGAGAA	-0.187
AATTCCTA	-0.171
AGTTTGAA	0.0321
ATACCTAT	-0.104
CAACTAGG	-0.0799
CGCCCCCA	0.117
ACTTTACG	-0.0223
GAGGATGA	-0.0659
AGCTGGCA	-0.245
GCCAAACC	-0.0385
GCTGCTGA	-0.0814
TCAGAACA	-0.121
CACAACTG	-0.204

A few entries again (sample 4):
Oligonucleotide	E-score
AGGAGATC	-0.156
CTGGAGAA	-0.187
AATTCCTA	-0.171
AGTTTGAA	0.0321
ATACCTAT	-0.104
CAACTAGG	-0.0799
CGCCCCCA	0.117
ACTTTACG	-0.0223
